Measurements pooled from the literature.
Numbered parts are unrelated; each lists some results of a single study. Several values in a cell are separate wells, animals, samples, runs or records. Positions count from the first letter of the parent shown.
Chain of UniProt Q9HBY8 (whole entry, looked up): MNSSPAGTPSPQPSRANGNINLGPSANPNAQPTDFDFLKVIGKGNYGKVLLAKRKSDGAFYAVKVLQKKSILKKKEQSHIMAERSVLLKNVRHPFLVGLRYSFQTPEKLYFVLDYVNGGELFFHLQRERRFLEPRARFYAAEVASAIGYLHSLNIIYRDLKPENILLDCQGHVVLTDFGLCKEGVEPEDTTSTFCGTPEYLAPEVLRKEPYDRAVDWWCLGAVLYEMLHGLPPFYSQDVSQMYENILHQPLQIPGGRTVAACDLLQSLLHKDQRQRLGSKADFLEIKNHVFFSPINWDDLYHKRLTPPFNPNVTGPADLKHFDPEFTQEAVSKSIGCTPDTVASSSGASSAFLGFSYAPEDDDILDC
Chain of UniProt P51451 (whole entry, looked up): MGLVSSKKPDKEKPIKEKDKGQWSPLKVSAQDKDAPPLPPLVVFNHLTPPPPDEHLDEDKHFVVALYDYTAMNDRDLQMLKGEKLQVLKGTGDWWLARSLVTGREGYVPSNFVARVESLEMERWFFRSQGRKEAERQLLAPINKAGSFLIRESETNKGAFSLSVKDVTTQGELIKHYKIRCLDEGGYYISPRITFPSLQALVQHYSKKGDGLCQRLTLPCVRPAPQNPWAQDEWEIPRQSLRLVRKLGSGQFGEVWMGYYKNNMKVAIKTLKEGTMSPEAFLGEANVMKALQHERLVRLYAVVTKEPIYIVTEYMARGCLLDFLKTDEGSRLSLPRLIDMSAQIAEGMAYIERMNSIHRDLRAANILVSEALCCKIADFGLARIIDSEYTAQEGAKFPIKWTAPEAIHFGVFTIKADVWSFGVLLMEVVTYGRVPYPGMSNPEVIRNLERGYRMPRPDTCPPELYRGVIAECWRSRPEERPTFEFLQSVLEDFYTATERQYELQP
Chain of UniProt P00519 (whole entry, unmodified, looked up): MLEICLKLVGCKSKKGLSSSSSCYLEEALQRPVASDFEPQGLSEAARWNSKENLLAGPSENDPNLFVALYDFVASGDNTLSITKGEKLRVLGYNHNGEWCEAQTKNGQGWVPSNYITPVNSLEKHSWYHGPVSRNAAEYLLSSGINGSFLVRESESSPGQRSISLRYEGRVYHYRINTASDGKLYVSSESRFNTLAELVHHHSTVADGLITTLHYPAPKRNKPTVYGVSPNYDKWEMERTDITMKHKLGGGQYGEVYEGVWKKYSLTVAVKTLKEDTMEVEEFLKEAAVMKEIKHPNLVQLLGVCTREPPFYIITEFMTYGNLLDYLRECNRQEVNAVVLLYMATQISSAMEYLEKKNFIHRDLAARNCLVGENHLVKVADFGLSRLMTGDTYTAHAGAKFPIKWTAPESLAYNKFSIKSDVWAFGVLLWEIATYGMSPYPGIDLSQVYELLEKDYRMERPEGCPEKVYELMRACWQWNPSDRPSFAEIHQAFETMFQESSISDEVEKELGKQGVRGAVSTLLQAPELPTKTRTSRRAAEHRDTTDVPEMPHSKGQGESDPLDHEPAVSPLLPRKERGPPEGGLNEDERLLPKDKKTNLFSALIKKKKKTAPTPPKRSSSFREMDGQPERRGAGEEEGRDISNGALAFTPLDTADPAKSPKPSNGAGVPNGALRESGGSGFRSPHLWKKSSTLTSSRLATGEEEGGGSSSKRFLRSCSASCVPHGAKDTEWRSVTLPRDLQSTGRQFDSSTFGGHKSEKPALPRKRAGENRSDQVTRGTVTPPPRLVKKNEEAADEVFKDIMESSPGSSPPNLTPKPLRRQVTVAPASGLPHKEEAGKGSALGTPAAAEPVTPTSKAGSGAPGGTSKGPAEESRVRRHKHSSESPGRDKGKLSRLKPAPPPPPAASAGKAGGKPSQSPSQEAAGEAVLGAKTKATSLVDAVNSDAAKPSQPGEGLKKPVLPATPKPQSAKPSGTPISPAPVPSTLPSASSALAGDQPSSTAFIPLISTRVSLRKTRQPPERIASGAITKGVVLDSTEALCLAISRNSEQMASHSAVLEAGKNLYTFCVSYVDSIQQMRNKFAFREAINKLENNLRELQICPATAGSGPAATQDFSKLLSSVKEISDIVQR

Set 1 — observed: cell-free assay; technique: competition with immobilised ligand; concentration: 1 µM; quantity: remaining binding
SMILES: Cn1cncc1[C@@](O)(COc1ccc(C#N)cc1-c1ccc(OC(F)(F)F)cc1)c1ccc(C#N)cc1
BLK (Homo sapiens, UniProt P51451): 71%
SGK2 (Homo sapiens, UniProt Q9HBY8): 100%
Tyrosine-protein kinase ABL1, non-phosphorylated (ABL1, Homo sapiens, UniProt P00519, F317L): 100%

Set 2 — observed: enzyme activity; mode: inhibitor; technique: radiometric; concentration: 0.5 µM; quantity: remaining activity
Target: Dual specificity tyrosine-phosphorylation-regulated kinase 1B (DYRK1B, Homo sapiens, UniProt Q9Y463)
CCOC(=O)c1c(C)[nH]c(/C=C2\C(=O)Nc3ccccc32)c1C: 105%
COc1cc2nccc(Oc3ccc(NC(=S)NC(=O)c4ccccc4C)cc3)c2cc1OC: 110%
Cc1ccc(NC(=O)c2ccc(CN3CCN(C)CC3)cc2)cc1Nc1nc(-c2cccnc2)cs1: 95.7%

Set 3 — observed: peptide-MHC binding; molecule type: peptide; concentration: concentration not given; quantity: binding
Target: HLA class I histocompatibility antigen, C alpha chain, allele C*04:01 (Homo sapiens, UniProt P10321)
MPAIFFSIV: inactive
AYFLEAQEM: inactive
VTDEGTSSF: inactive
RYEFTAPFI: inactive
RYRQVLSPL: inactive
KQLELFWVI: inactive
RIFPATHYV: inactive
FLRKNQRAL: inactive

Set 4 — target: CCNF, cyclin fold, Cln2 fusion (human); technique: yeast growth competition, sequencing; sample: yeast; notes: strong parent motif; relative to: not given; reading: higher = stronger binding; quantity: normalised enrichment score; parent: viral docking peptide; YKVKRRLVFGADD
YKVKRRLVFGYDD [A11Y]: 8.72
AKVKRRLVFGADD [Y1A]: 9.34
YKVKRRLVFKADD [G10K]: 7.76
YDVKRRLVFGADD [K2D]: 8.11
YKVKRRLNFGADD [V8N]: 8.93
YKGKRRLVFGADD [V3G]: 8.2
YKVKRRLVDGADD [F9D]: 1.16
YKVKRREVFGADD [L7E]: 0.398

Further values, each from its own experiment
CC[C@H](C)c1nc2cc(Nc3ccnc4ccc(S(=O)(=O)C(C)C)cc34)ccc2s1.Cl
viability (HT-29; necroptosis protection, CCK-8; 0.156 µM, added: TNF-α SMAC mimetic zVAD): 12.4% and 16.6% and 11.5% and 18.1% and 18.7%

Some of these lines once more (set 1):
BLK (Homo sapiens, UniProt P51451): 71%
SGK2 (Homo sapiens, UniProt Q9HBY8): 100%
Tyrosine-protein kinase ABL1, non-phosphorylated (ABL1, Homo sapiens, UniProt P00519, F317L): 100%
